# Assay results of several laboratories.
# Protocols differ between the studies behind these lines. Several values in a cell are separate wells, animals, samples, runs or records. ± gives the spread as reported.
Compound,tested on,assay,system,setting,how to read,measurement,value
NC1(C(=O)N[C@@H](CCO)c2ccc(Cl)cc2)CCN(c2nc[nH]c3nccc2-3)CC1,,,human mCRPC patients,"dose not given, together with: enzalutamide",,PSA response rate,18.2%
C[C@H](Oc1ccc(Br)cc1-c1ccon1)C(=O)O,,muscle velocity recovery cycles,"human, tibialis anterior muscle","600 mg once daily, multiple doses, multiple ascending dose",relative to: placebo,relative refractory period,-0.08 ms
CN(C)C(=O)c1cc2cnc(Nc3ccc(N4CCNCC4)cn3)nc2n1C1CCCC1,,"RNA-seq GSEA, measured: HALLMARK_PANCREAS_BETA_CELLS gene set",MB002 tumour,concentration not given,"relative to: vehicle, direction not given",enrichment score,-0.439
CC1(C)C=C(CNc2ccc3c(c2)Cc2cc(Br)ccc2-3)C(C)(C)N1[O],,"MRI, MSME","wild-type mice, brain","iv, 3 mg/kg, 24 h",,T1 relaxation time,1470 ms
O=C(NNC1CC(=O)N(c2ccc(Br)cc2)C1=O)c1ccc(-n2cccc2)cc1 (stereo not shown),,"CoA-CPM signal reduction, CPM fluorescence thiol",cell-free biochemical,"assay interference counter-screen, together with: CoA replacing acetyl-CoA",,IC50,> 125 µM
CO[C@H]1C[C@@H]2CC[C@@H](C)[C@@](O)(O2)C(=O)C(=O)N2CCCC[C@H]2C(=O)O[C@H]([C@H](C)C[C@@H]2CC[C@@H](O)[C@H](OC)C2)CC(=O)[C@H](C)/C=C(\C)[C@@H](O)[C@@H](OC)C(=O)[C@H](C)C[C@H](C)/C=C/C=C/C=C/1C,,oral glucose tolerance test,healthy adult horses,"IV, 0.06 mg/kg, 0 min, test 4 h after single dose",,blood glucose,104 mg/dL
Cc1cn(-c2ccc3n(c2=O)CCN([C@@H](C)[C@@H]2CC[C@H](c4cc(F)c(Cl)cc4C(F)(F)F)O2)C3=O)cn1,,measured: Aβ42,"human, cerebrospinal fluid","150 mg single dose, Tmax",relative to: placebo-adjusted baseline,change in CSF level,-33.3%
[Cl][Ru][Cl].c1cnc2c(c1)ccc1cccnc12.c1cnc2c(c1)ccc1cccnc12.c1cnc2c(c1)ccc1cccnc12,,,air-saturated acetonitrile,,relative to: Ru(bpy)3(PF6)2,singlet oxygen quantum yield,0.53
N#Cc1ccc2c(-c3ccncc3)c(-c3ccc(F)cc3)nn2c1,,"kinase binding, competitor, MIB/MS competition, measured: CMK1",Candida albicans cell lysate,10 µM,relative to: DMSO,log2 fold change,0.306
O=C(O)CCC(=O)O.[2H]C([2H])([2H])Oc1cc(C)c2[nH]ccc2c1CN1CC[C@@H](C2CC2)C[C@H]1c1ccc(C(=O)O)cc1,,"EIA, measured: complement fragment Bb","human, plasma","100 mg twice daily, multiple ascending dose",,maximum inhibition,51.6%
CCOc1c([C@H](C)n2nc(C)c3c(N)ncnc32)cc(Cl)c(F)c1[C@@H]1CNC(=O)C1,,"Olink proximity extension proteomics, measured: TMPRSS15","human FL or MZL patients, plasma","dose not given, week 8",relative to: baseline,plasma protein level change,237%
C[C@H]1C[C@H]2CSC(N)=N[C@@]2(c2nc(NC(=O)c3ccc(OC(F)F)cn3)cs2)CO1,,measured: Aβ1-40,"healthy adults, plasma","200 mg single dose, 8 h post-dose",relative to: placebo,percent change from baseline,-87.7%
NC(=O)c1cnc2[nH]ccc2c1N[C@@H]1[C@@H]2CC3C[C@H]1C[C@@](O)(C3)C2,,flow cytometry,"Japanese healthy men, blood","oral, 30 mg twice daily, 72 h after day 7 dose",relative to: baseline,CD4+ central memory change,-0.92%
Fc1ccc(-c2nsc(Nc3ccccc3)n2)cc1,,"CoA-CPM signal reduction, CPM fluorescence thiol",cell-free biochemical,"assay interference counter-screen, together with: CoA replacing acetyl-CoA",,IC50,> 125 µM
CC(=O)N[C@@H](CC(N)=O)C(=O)N[C@@H](CCCNC(=N)N)C(=O)N[C@@H](CC(C)C)C(=O)N[C@H]1CSSC[C@@H](C(=O)N[C@H](C(N)=O)[C@@H](C)O)NC(=O)[C@H](CCCNC(=N)N)NC(=O)[C@H](Cc2c[nH]cn2)NC(=O)[C@H](C)NC(=O)CNC(=O)[C@H](Cc2c[nH]c3ccccc23)NC(=O)[C@H](CC(=O)O)NC(=O)[C@H](CCC(N)=O)NC(=O)[C@H](Cc2c[nH]c3ccccc23)NC(=O)[C@H](C(C)C)NC1=O,,"complement activation, inhibitor, ELISA, measured: C3b",normal human serum,,,IC50,0.53 ± 0.04 µM
O=C(O)CNC(=O)Cc1ccccc1,,,"ventricular cardiomyocytes, C57BL/6 mouse","dose not given, 0.152 s",,sarcomere length,1.66 µm
CC(CCc1ccc(O)cc1)NCCc1ccc(O)c(O)c1 (stereo not shown),,,anaesthetised instrumented rat,"iv infusion, 1 µg/kg/min, 15 min",relative to: baseline,mean arterial pressure change,-0.1 ± 1.3%
Cc1noc(C)c1-c1cc(C(O)(c2ccccn2)c2ccccn2)c2nc(C3CC3)[nH]c2c1,,measured: HEXIM1 expression,"human, peripheral blood","6 mg, day 1, 1599 study",,maximum induction,29.1%
CCCC(CCC)C(=O)Oc1cccc(C(O)CCN)c1.O=CO (stereo not shown),,OCT at 500 µm from nerve head,"Abca4-/-Rdh8-/- mice, photic damage","intraperitoneal, 10 mg/kg, 7 days, together with: 10,000 lx light, 30 min",,ONL thickness,55.9 µm and 49.3 µm and 55.5 µm and 57.6 µm and 45.5 µm
Cc1c(CN2CCN(C(=O)[C@H](C)O)CC2)sc2c(N3CCOCC3)nc(-c3cnc(N)nc3)nc12,,measured: pAkt,"patients, metastatic renal cell carcinoma, plasma",,,IC50,0.0191 µg/mL
OC(CCN1CCCCC1)(c1ccccc1)C1CC2C=CC1C2 (stereo not shown),,resting-state EEG,healthy elderly humans,"oral, 4 mg, eyes open, LS mean",relative to: baseline,"change, Delta EEG power, in O2-Pz",48.8%
CO[C@@H]1[C@@H](OC(N)=O)[C@@H](O)[C@H](Oc2ccc3c(O)c(NC(=O)c4ccc(O)c(CC=C(C)C)c4)c(=O)oc3c2C)OC1(C)C,,,"Brca1 wild-type MEFs, mouse",100 µM,,colony survival,78.9% and 37.9% and 65.5% and 51.2% and 63.7%
FC(F)(F)Oc1cccc(-c2cnc3ccc(-c4ccncc4)nn23)c1,,,"mouse, MDA-MB-231-Luc xenograft","30 mg/kg, start",,tumour bioluminescence,1.77e+10 photons/s and 1.4e+10 photons/s and 2.28e+10 photons/s and 4.61e+09 photons/s and 4.96e+09 photons/s
CCCSc1nsc(NC(=O)CN2CCN(c3ccccc3)CC2)n1,,"CoA-CPM signal reduction, CPM fluorescence thiol",cell-free biochemical,"assay interference counter-screen, together with: CoA replacing acetyl-CoA",,IC50,> 125 µM
CCCCOc1nc(N)c2c(n1)N(Cc1cccc(CN3CCCC3)c1)CC(=O)N2,,,"human, blood","dose not given, 12 h, COBI",,TLR7 mRNA level,increased
Cc1cccc(NS(=O)(=O)c2cc(C(=O)Nc3ccccc3C(=O)N3CCOCC3)ccc2Cl)c1,"Cyclin-dependent kinase 2 (CDK2, Homo sapiens, UniProt P24941)",binding,,,,Kd,> 100 µM
COc1ccccc1[C@H](Cn1c(=O)n(C(C)(C)C(=O)O)c(=O)c2c(C)c(-c3ncco3)sc21)OC1CCOCC1,,"[1-13C]acetate infusion, isotopomer analysis","overweight or obese healthy men, plasma VLDL-TG palmitate","oral, 50 mg single dose, 1 h post-dose, together with: oral fructose",,fractional hepatic DNL,5.32 % new palmitate
CSCCNc1nc(SCCC(F)(F)F)nc2c1ncn2[C@@H]1O[C@H](COP(=O)(O)OP(=O)(O)C(Cl)(Cl)P(=O)(O)O)[C@@H](O)[C@H]1O,,"platelet aggregation, light transmission aggregometry","human patients, platelet-rich plasma","dose not given, 3 h, together with: TRAP 5 µM",,patients with IPA above 80%,16.2%
CC1(C)CCC(CN2CCN(c3ccc(C(=O)NS(=O)(=O)c4ccc(NCC5CCOCC5)c([N+](=O)[O-])c4)c(Oc4cnc5[nH]ccc5c4)c3)CC2)=C(c2ccc(Cl)cc2)C1,,cell kill,"primary neoplastic B cells, dog 37","24 h, multicentric marginal zone lymphoma",,EC50,> 50 µM
CCc1c(C)nc(-c2ccc(Cl)s2)nc1Nc1ccc(CC(=O)O)cc1,,,"C57BL/6J mice, high-fat diet","intraperitoneal, 0.3 mg/kg daily, 60% fat diet 12 weeks, dosed last four",relative to: vehicle,fed blood glucose,decreased
CCCCSC1CC(=O)N(c2ccc(Br)cc2)C1=O (stereo not shown),,"CoA-CPM signal reduction, CPM fluorescence thiol",cell-free biochemical,"assay interference counter-screen, together with: CoA replacing acetyl-CoA",,IC50,> 125 µM
CC(C)NCC(O)c1ccc(O)c(O)c1 (stereo not shown),,,"ventricular cardiomyocytes, C57BL/6 mouse","dose not given, 0.044 s",,sarcomere length,1.72 µm
O=[N+]([O-])c1cccc(S(=O)(=O)Nc2ccc(O)c(Br)c2)c1,,"CoA-CPM signal reduction, CPM fluorescence thiol",cell-free biochemical,"assay interference counter-screen, together with: CoA replacing acetyl-CoA",,IC50,> 125 µM
Cn1cc(Nc2nccc(-c3ccc4c(c3)CN(C3COC3)CC[C@H]4NC(=O)c3cn(C(C)(C)C)nn3)n2)cn1,,measured: Natural Killer Cell Signaling,"splenic B cells, Mus musculus","30 mg/kg, together with: IgD activation","relative to: vehicle, direction not given",pathway activation z-score,2.12
Cc1cc(C)c(S(=O)(=O)NCc2ccccn2)cc1C,"Cyclin-dependent kinase 2, with cyclin A (CDK2, Homo sapiens, UniProt P24941)",,,,,Kd,> 100 µM
CO[C@H]1CC[C@H](N2C(=O)CNc3ncc(-c4ccc(C(C)(C)O)nc4)nc32)CC1,,flow cytometry,"stimulated T cells, human, blood","60 mg single dose, 1.5 h, mean",relative to: baseline,p4EBP1 change from baseline,-31.6%
CN[C@@H]1COc2c(S(=O)(=O)NC(=O)Nc3c4c(cc5c3CCC5)CCC4)cnn2C1,,measured: IL-1β,"human participants, whole blood ex vivo","900 mg single dose, 4 h, together with: LPS/ATP",relative to: baseline,inhibition,99.6%

# Excerpt of the above:
Compound,tested on,assay,system,setting,how to read,measurement,value
CCCCOc1nc(N)c2c(n1)N(Cc1cccc(CN3CCCC3)c1)CC(=O)N2,,,"human, blood","dose not given, 12 h, COBI",,TLR7 mRNA level,increased
Cc1cccc(NS(=O)(=O)c2cc(C(=O)Nc3ccccc3C(=O)N3CCOCC3)ccc2Cl)c1,"Cyclin-dependent kinase 2 (CDK2, Homo sapiens, UniProt P24941)",binding,,,,Kd,> 100 µM
COc1ccccc1[C@H](Cn1c(=O)n(C(C)(C)C(=O)O)c(=O)c2c(C)c(-c3ncco3)sc21)OC1CCOCC1,,"[1-13C]acetate infusion, isotopomer analysis","overweight or obese healthy men, plasma VLDL-TG palmitate","oral, 50 mg single dose, 1 h post-dose, together with: oral fructose",,fractional hepatic DNL,5.32 % new palmitate
CSCCNc1nc(SCCC(F)(F)F)nc2c1ncn2[C@@H]1O[C@H](COP(=O)(O)OP(=O)(O)C(Cl)(Cl)P(=O)(O)O)[C@@H](O)[C@H]1O,,"platelet aggregation, light transmission aggregometry","human patients, platelet-rich plasma","dose not given, 3 h, together with: TRAP 5 µM",,patients with IPA above 80%,16.2%
CC1(C)CCC(CN2CCN(c3ccc(C(=O)NS(=O)(=O)c4ccc(NCC5CCOCC5)c([N+](=O)[O-])c4)c(Oc4cnc5[nH]ccc5c4)c3)CC2)=C(c2ccc(Cl)cc2)C1,,cell kill,"primary neoplastic B cells, dog 37","24 h, multicentric marginal zone lymphoma",,EC50,> 50 µM
